Measured values collected from several papers.
Compare with care: the assays were run in different laboratories. “And” joins repeats or separate records; there may be more than shown. ± marks the error that the study gave.
TOP2A: DNA topoisomerase 2-alpha (TOP2A, Homo sapiens, UniProt P11388)
GUK1: GUK1 (Homo sapiens, UniProt Q16774)
CA12: Carbonic anhydrase 12 (CA12, Homo sapiens, UniProt O43570)

SMILES	target	test	test system	conditions	scale	endpoint	result
CCOC(=O)[C@](CC)(CCCS(=O)(=O)CCOCCOCCNC(=O)OC(C)(C)C)NC(=O)c1ccc(C2CC2)c(Cc2ccc(F)cc2)n1	Cannabinoid receptor 2 (CNR2, Homo sapiens, UniProt P34972)	cAMP level	–	added: forskolin	relative to: hCB1 over hCB2	selectivity ratio	≥ 577 fold
OC[C@H]1OC(O)[C@H](O)[C@@H](O)[C@@H]1O (some centres unmarked)	Hexokinase-3 (HK3, Homo sapiens, UniProt P52790, A499V)	substrate inhibition	–	mutant A499V, complete substrate inhibition model, added: ATP 20 mM	–	kcat	64 ± 1 s⁻¹
O=C(CCCc1ccccc1)C(=O)NCCc1ccc(Oc2ccc(C(F)(F)F)cn2)cc1	Prolyl endopeptidase (PREP, Homo sapiens, UniProt P48147)	inhibitor, FP-biotin chemoproteomics	HepG2	concentration not given	relative to: DMSO, lower = stronger inhibition	probe-enriched protein abundance	265000 a.u. and 214000 a.u. and 276000 a.u.
Cc1ncsc1-c1ccc(CNC(=O)[C@@H]2C[C@@H](O)CN2C(=O)[C@@H](NC(=O)CCCCCCCCCCCC(=O)NCCCCC#Cc2cccc(-c3nn(-c4nc(C(=O)O)cs4)c(CC4CC4)c3Cc3ccc(S(N)(=O)=O)cc3)c2)C(C)(C)C)cc1	L-lactate dehydrogenase A chain (LDHA, Homo sapiens, UniProt P00338)	degrader, western blot	PANC-1	48 h	–	Dmax	93 ± 2.6%
CCC1(O)CCCN(C(=O)c2ccc(-c3ccc(F)c(NC(=O)CCl)c3)cc2)C1 (centres unmarked)	DNA dC->dU-editing enzyme APOBEC-3B, C-terminal domain (Homo sapiens, UniProt Q9UH17)	covalent modifier, intact protein mass spectrometry, measured: adduct +26487 Da	–	125 µM, 3 h, 5-fold molar excess	–	protein adduct	0%
NCCCCC(=O)O	Sodium- and chloride-dependent taurine transporter (SLC6A6, Homo sapiens, UniProt P31641, Y138A)	binding, microscale thermophoresis	–	61 nM, room temperature, added: 50 nM labelled protein	higher = more binding	normalised MST signal	0.0531
O=c1nc(SCc2cc(F)cc(C(F)(F)F)c2)nc(SCc2ccc3nc(Cl)ccc3c2)[nH]1	TOP2A	DNA relaxation	–	15.6 µM, replicate 1	–	relaxed DNA	99.6%
CNCC(=O)O	Sodium- and chloride-dependent glycine transporter 2 (Homo sapiens, UniProt Q9Y345)	glycine uptake, inhibitor, [3H]glycine uptake	–	1000 µM, log concentration 1, added: [3H]glycine	relative to: no inhibitor	remaining activity	102%
CCCCCCCC(=O)c1cc(OC)c(OC)c(OC)c1CC(=O)OCC	Nuclear receptor subfamily 5 group A member 2 (NR5A2, Homo sapiens, UniProt O00482)	reporter gene, Gal4 hybrid reporter	–	10 µM	relative to: vehicle	activation	0.77 fold
O=C(O)c1ccc(Nc2ncc3c(n2)-c2ccc(Cl)cc2C(c2c(F)cccc2F)=NC3)cc1	Mnk2(h)	kinase activity	–	1 µM	–	remaining activity	94%
O=S(=O)(O)O	GUK1	enzyme activity, NADH-coupled	–	10 mM, added: ATP 2000 µM	–	reaction velocity	0.113 µM/s and 0.101 µM/s and 0.0883 µM/s
O=C(Nc1cccc2c(=O)cc(-c3nnn[nH]3)oc12)c1ccc(OCCCCc2ccccc2)cc1	LRRC8A/LRRC8C (Homo sapiens, UniProt Q8IWT6+Q8TDW0, L134K/L136K)	ion current, whole-cell patch clamp	HCT LRRC8-/- cells	1 µM, -100 mV, L134K/L136K heteromers	–	inhibition	44% and 19% and 43.5% and 41.4% and 12.9% and 38.8%
CC[C@@H](C)[C@@H](NC(=O)[C@@H](Cc1ccc(O)cc1)NC(=O)[C@H]1CCCN1C(=O)[C@@H](CCCNC(=N)N)NC(=O)[C@H](N)Cc1c[nH]cn1)C(=O)N[C@H](C)C(=O)N[C@H](Cc1c[nH]cn1)C(=O)N[C@H](CCCNC(=N)N)C(=O)N[C@@H](C(=O)N[C@H](Cc1ccc(O)cc1)C(=O)N[C@H](CO)C(=O)N[C@H](Cc1ccccc1)C(N)=O)C(C)C	Transferrin receptor protein 1 (Tfrc, Mus musculus, UniProt Q62351)	flow cytometry	RAW264.7	48 h, pH 6, replicate 1, unit not given	relative to: 0 h	surface TFRC expression	0.934
c1ccc(-c2n[nH]cc2-c2ccnc3ccccc23)nc1	Negative regulator of the PHO system (PHO85, Candida albicans, UniProt Q9HGY5)	kinase binding, competitor, MIB/MS competition, measured: PHO85	Candida albicans cell lysate	1 µM	relative to: DMSO	log2 fold change	1.43
C=CC(=O)N1CCC(COCC(=O)N2CCN(c3nc(-c4cnc(N)nc4C(F)F)nc(N4CCOC[C@@H]4C)n3)CC2)CC1	Ephrin type-B receptor 6 (EPHB6, Homo sapiens, UniProt O15197)	KINOMEscan	–	1 µM	–	remaining binding	59%
CN(C)CCCN1c2ccccc2CCc2ccccc21	Sodium-dependent serotonin transporter (SLC6A4, Homo sapiens, UniProt P31645)	binding, antagonist, radioligand binding	–	–	–	Hill coefficient	1

SMILES	target	test	test system	conditions	scale	endpoint	result
C[C@H](N)C(=O)Nc1ccc2ccccc2c1	rat neuron-specific aminopeptidase	substrate	–	MW 110 kDa	–	kcat	15.4 s⁻¹
COc1cc(-c2cncc3c2CN(C)Cc2cc(N4CCNCC4)ccc2-3)cc(OC)c1OC	Mast/stem cell growth factor receptor Kit (KIT, Homo sapiens, UniProt P10721, D816V)	kinase activity	–	1 µM, added: ATP 10 µM	relative to: DMSO control	remaining activity	87%
CCN(CC)CCNC(=O)C1CCN(c2ccc3nnc(-c4cccc(C)c4)n3n2)CC1	CatSper channel complex (Homo sapiens, UniProt Q7RTX7+Q86XQ3+Q8NEC5+Q96P56)	ion current, whole-cell patch clamp	human sperm	10 µM, at -80 mV	–	inward current density	-1.2 ± 0.4 pA/pF
CC[C@@H]1[C@H](F)C(=O)N[C@@H]1COc1nccc2cc(C(N)=O)c(OC)cc12	Cyclin-G-associated kinase (GAK, Homo sapiens, UniProt O14976)	ATP-site probe binding, ActivX profiling	THP-1 cell lysate	0.01 mM, Lys2 site	–	inhibition	16.2%
Nc1ncnc2c1ncn2[C@@H]1O[C@H](COP(=O)([O-])OP(=O)([O-])OP(=O)(O)O)[C@@H](O)[C@H]1O.[Mg+2]	P2X3-containing receptors (rat)	ion current, patch clamp	nodose ganglion neurons (rat)	10 µM	relative to: AF-353-sensitive ATP current	relative current	3.74 ± 0.73 fold
COc1cc(-c2cc(C(C)=O)n3ccccc23)cc(OC)c1Cn1ccnc1	Bromodomain-containing protein 3, BD1 (BRD3, Homo sapiens, UniProt Q15059)	–	–	–	–	ΔTm	1.8 °C
CCC(CC)(NCCc1ccc(C(F)(F)F)c(Cl)c1)c1cccc(NC2=CC(=O)N(C3CCC(=O)NC3=O)C2=O)c1 (centres unmarked)	ZBTB11/CRBN (Homo sapiens, UniProt O95625+Q96SW2)	protein degradation, degrader, HiBiT luminescence	MOLT-4	–	–	Dmax	74%
N#CSCCCCOc1ccc2c(-c3ccccc3)cc(=O)oc2c1	CA12	stopped-flow CO2 hydration	–	–	relative to: Ki CA I over Ki CA XII	selectivity ratio	> 427
COc1cc(NC(=O)c2ccccn2)ccc1/N=N/c1ccccc1Cl	Metabotropic glutamate receptor 1 (GRM1, Homo sapiens, UniProt Q13255)	positive allosteric modulator, IP accumulation	HEK293	30 µM, in the dark, added: low-dose orthosteric agonist	–	activation	4.6%
CN(C)C(=O)C(CCN1CCC(O)(c2ccc(Cl)cc2)CC1)(c1ccccc1)c1ccccc1	Calcium-activated potassium channel subunit alpha-1, with LRRC26 γ1 subunit (KCNMA1, Homo sapiens, UniProt Q12791)	BK channel conductance, inside-out patch clamp	–	BKα/γ1, Vm 100 mV, nominally Ca2+-free	–	Hill coefficient	0.77 ± 0.067
Nc1nc2c(ncn2[C@@H]2O[C@H](COP(=O)(O)O)[C@@H](O)[C@H]2O)c(=O)[nH]1	GUK1	enzyme activity, NADH-coupled	–	250 µM, added: KCl 50 mM	–	reaction velocity	0.131 µM/s and 0.123 µM/s and 0.117 µM/s
O=c1nc(SCc2cc(F)cc(C(F)(F)F)c2)nc(SCc2ccc3sccc3c2)[nH]1	TOP2A	decatenation	–	7.8 µM	–	mean decatenated DNA	100%
Nc1ncnc2c1cnn2C1CCCCC1	Inositol-tetrakisphosphate 1-kinase (Homo sapiens, UniProt Q13572)	binding, microscale thermophoresis	–	highest compound concentration, added: increasing ATP	relative to: no ATP	fold increase in apparent Kd	~40 fold
CN(C)CC#Cc1ccc2[nH]c3c(c2c1)-c1nc(N)ncc1CCC3	Interleukin-1 receptor-associated kinase 3 (IRAK3, Homo sapiens, UniProt Q9Y616)	DiscoverX scanMAX	–	1 µM	relative to: untreated control	remaining binding	9.2%
Cc1cn([C@H]2C[C@H](N=[N+]=[N-])[C@@H](CO)O2)c(=O)[nH]c1=O	CA12	–	–	–	relative to: Ki hCA II over Ki hCA XII	selectivity ratio	1.16
Nc1ncnc2c1ncn2[C@@H]1O[C@H](COP(=O)(O)CP(=O)(O)OP(=O)(O)O)[C@@H](O)[C@H]1O	P2X purinoceptor 1 (P2RX1, Homo sapiens, UniProt P51575, R139A)	saturation binding	HEK293	130 nM	–	specific binding	5630 CCPM and 4160 CCPM

A few entries again:
SMILES	target	test	test system	conditions	scale	endpoint	result
O=C(Nc1cccc2c(=O)cc(-c3nnn[nH]3)oc12)c1ccc(OCCCCc2ccccc2)cc1	LRRC8A/LRRC8C (Homo sapiens, UniProt Q8IWT6+Q8TDW0, L134K/L136K)	ion current, whole-cell patch clamp	HCT LRRC8-/- cells	1 µM, -100 mV, L134K/L136K heteromers	–	inhibition	44% and 19% and 43.5% and 41.4% and 12.9% and 38.8%
CC[C@@H](C)[C@@H](NC(=O)[C@@H](Cc1ccc(O)cc1)NC(=O)[C@H]1CCCN1C(=O)[C@@H](CCCNC(=N)N)NC(=O)[C@H](N)Cc1c[nH]cn1)C(=O)N[C@H](C)C(=O)N[C@H](Cc1c[nH]cn1)C(=O)N[C@H](CCCNC(=N)N)C(=O)N[C@@H](C(=O)N[C@H](Cc1ccc(O)cc1)C(=O)N[C@H](CO)C(=O)N[C@H](Cc1ccccc1)C(N)=O)C(C)C	Transferrin receptor protein 1 (Tfrc, Mus musculus, UniProt Q62351)	flow cytometry	RAW264.7	48 h, pH 6, replicate 1, unit not given	relative to: 0 h	surface TFRC expression	0.934
CN(C)CC#Cc1ccc2[nH]c3c(c2c1)-c1nc(N)ncc1CCC3	Interleukin-1 receptor-associated kinase 3 (IRAK3, Homo sapiens, UniProt Q9Y616)	DiscoverX scanMAX	–	1 µM	relative to: untreated control	remaining binding	9.2%
Cc1ncsc1-c1ccc(CNC(=O)[C@@H]2C[C@@H](O)CN2C(=O)[C@@H](NC(=O)CCCCCCCCCCCC(=O)NCCCCC#Cc2cccc(-c3nn(-c4nc(C(=O)O)cs4)c(CC4CC4)c3Cc3ccc(S(N)(=O)=O)cc3)c2)C(C)(C)C)cc1	L-lactate dehydrogenase A chain (LDHA, Homo sapiens, UniProt P00338)	degrader, western blot	PANC-1	48 h	–	Dmax	93 ± 2.6%
N#CSCCCCOc1ccc2c(-c3ccccc3)cc(=O)oc2c1	CA12	stopped-flow CO2 hydration	–	–	relative to: Ki CA I over Ki CA XII	selectivity ratio	> 427
